# Published values gathered from unrelated publications.
# Parts stem from different laboratories: compare values within a part only. Positions count from the first letter of the parent shown.

# Block 1
# Target: Histone acetyltransferase KAT6A, winged helix 1, GST fusion (KAT6A, Homo sapiens, UniProt Q92794, residues 1-85)
# Technique: protein binding microarray
# Molecule type: double-stranded DNA, one strand shown
# Sample: in vitro
# Tested at: not given
# Notes: 8-mer, flanks averaged, mean of 2 arrays, mostly near background
# Relative to: not given
# Reading: higher = stronger binding
# Target sequence (chain): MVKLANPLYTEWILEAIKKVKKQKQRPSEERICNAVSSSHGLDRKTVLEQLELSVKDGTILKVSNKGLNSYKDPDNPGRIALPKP
Strand,E-score
CGTCAGTA,-0.0101
GTCCCAAC,-0.138
CCCGCCAG,0.238
AAGATGCT,-0.111
AGAGAGCT,-0.207
ACCACAAG,-0.178
CGCCTGCA,-0.0132
CACGTTGG,-0.265
TAACGGCA,0.288
AAGATGCA,-0.151
TGGGAGAA,-0.288
GCGCGCCA,0.422
CAACGAAG,-0.125
CAACGACG,0.135
ACGTATGG,0.0863
GCTCAATA,-0.156
GCCGTCCA,0.264
CCAGGTAA,-0.149
AAATCTGG,-0.122
ACTCCCGG,0.227

# Block 2
# Target: RNA binding protein fox-1 homolog 2, RRM domain, GST-SBP tag (RBFOX2, Homo sapiens, UniProt O43251-10, residues 100-194)
# Technique: RNA Bind-n-Seq
# Molecule type: RNA
# Sample: in vitro
# Tested at: 365 nM
# Notes: natural RNA segment, single round, ends assumed
# Relative to: no-protein control
# Reading: higher = stronger binding
# Constant ends, left off below: GGGAGUUCUACAGUCCGACGAUC … UGGAAUUCUCGGGUGCCAA
# Target sequence (chain): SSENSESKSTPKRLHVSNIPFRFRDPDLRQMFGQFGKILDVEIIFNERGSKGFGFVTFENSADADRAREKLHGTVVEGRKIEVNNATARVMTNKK
Strand,RBNS enrichment (R)
ACACCCUUUGUAUUUGACCUCUUCCCAGUUCCUGCCCUGUUUCUGUAUCUUUACUUGAAAGUUGGGAGUCCUUGUUUAAUUUAGGUCUGUCUUCUUGUGUGACUGUUUCU,0.36
GACCUCACCAUAGGUUGGGGUCCCAGUAGGAAGGCUCAGGGUCUGUGCCAGCCCUGUCGGUGCUGCUCAGACCUUCAUAGCCUCUCUUGUCAUUCUUUGUUGCCCCUUUU,0.164
UCCUACAAAGCAAUAUUCCAAAGGAACAUUUUAACUGUAAAGGCUGGAGACAAGAAAAAAUAAGUAGAUCGUUUUAAUAACAAUUAUUUAAUUGCCUAUAAGUUUGCUGU,0.534
UGCAGAGCCAGGCUUGUACCACAGCUCAGAGGCGUCAAGUUUCCAAUUAAAGCCACUGGAGAAAACCGAAAUGUGUCUCAUCCUUGUAUUUAUUGAUCUUGAUUGUCAGU,0.241
GCCAAGCUGACUGUGGUAUGUAGCCACUUCAGGGGUUGCGCUUCUCACUAGGUUGGCGGUACAUGUGGCCUUGUGCCCACCCCCAUCCCCAUUGUAGUCAGGUUCCCAGG,0.336
UAUUCCCUGUUGGUUCCUGUUUCACUGGCUGUUUUAGCUUUGUGUUGAUUGGUGUUUCUGAGCAUUCAGACUCCGCACCCUCAUUUCUAAUAAAUGCAACAUUGGACCCG,0.278
UACACGUUGUAAGAUGUGAAUUAUUGACACUGAGCUAACUGUACUGUUUGGAAAGGGGCCCUCAAGUUUUUGGCAUUUUUCUUUCCUUUUUGUAUGUGUGUAUGUAAUUU,1.04
UAAUGGGCCUGAAAAAGUUUCUUCUUUGAUUAUGUAGUUACUCUAGAUACAUUCUUUUAGGGAAGUGUAUGGUCAACAUAUAUUUACUCAGUAUACAGAUAACCACAAAG,0.322
ACCACCCCCAGUCUCAAUCCUGUGCCGACAAAGGAAGUGGACGAAUUAGUGAUGAUGGUGGGCGUGAUGGAAAGAAAGAGGUGAGUGGAGACUCAGCCUGGCUAUUCUUG,0.454
UCCUCAUUGCUGGGACUGGGGACGGGGUGGAUUAGAAACAAAAAUUCUGUUUCUGAGGACUUUUAGCAAGAGACAGAAAAUCCUGCCAUUCUGGUUGGAAAUUAUAUAAA,0.898
AUAGAAAGACUAACUAGGGAACAACAAGGCCACAAACAAGCCACCUGGCACAGCAGCCUUCUACUCAUCCACUGCAUGACCCGGAGGCUAGGAGAGCCUGGGCUUCCUCC,2.3
CUGGUGAUUCUCCAUGCCUGUCCUUACCCCGGAUCUGGCUAUUCCCGUGAUGCCAUUUGGAGGGGAGAGGUCUGCUUCCCACUGUGACCAGGCUAUGGGAUCCUUGGCCA,0.834

# Block 3
# Target: Interferon regulatory factor 3, full length, phosphomimetic (IRF3, Homo sapiens, UniProt Q14653, residues 1-427, S386D/S396D/S398D/S402D/T404D/S405D)
# Technique: protein-binding microarray
# Molecule type: double-stranded DNA, one strand shown
# Sample: in vitro
# Tested at: 2540 nM top
# Notes: 60-bp whole probe
# Together with: salmon DNA 0.4 mg/ml
# Relative to: random background probes
# Reading: higher = stronger binding
# Constant ends, left off below: GCCTAGCAC … GTCTTGATTCGCTTGACGCTGCTG
# Target sequence (chain): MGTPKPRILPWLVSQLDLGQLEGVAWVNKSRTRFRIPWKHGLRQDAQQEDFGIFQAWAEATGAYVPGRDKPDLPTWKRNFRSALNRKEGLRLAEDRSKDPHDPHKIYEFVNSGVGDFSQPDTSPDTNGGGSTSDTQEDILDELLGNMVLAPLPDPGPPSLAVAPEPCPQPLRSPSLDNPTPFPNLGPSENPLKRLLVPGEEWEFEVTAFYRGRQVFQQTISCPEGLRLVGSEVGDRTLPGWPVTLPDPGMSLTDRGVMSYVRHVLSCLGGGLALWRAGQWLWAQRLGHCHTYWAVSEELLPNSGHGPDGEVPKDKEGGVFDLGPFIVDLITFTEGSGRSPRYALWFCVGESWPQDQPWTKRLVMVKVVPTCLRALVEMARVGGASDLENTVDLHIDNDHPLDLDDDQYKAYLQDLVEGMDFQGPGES
Strand,fitted relative affinity
TAAAGCATTACTTTAGGTTCGTGCTAG,-0.148 z-score
GACGCACTGGGGTTTCGGGACGTGCTA,0.607 z-score
GACGAACTGAGACTGGATACGTGCTAG,0.0334 z-score
GGAGTTTTCAGTCCTGGGATGTGCTAG,1.05 z-score
TTAGGTATCGGTATCCGTTAGTGCTAG,5.06 z-score
TCAACTTTCTTTACTTCACTGTGCTAG,1.68 z-score
TCACTTATCCTTCCCCTACTGTGCTAG,1.41 z-score
GACGGACTGGACTAGCGGGACGTGCTA,-0.682 z-score
GACGGTTTCGGTCTCGGAACGTGCTAG,8.3 z-score
TCAAGTTCATGTTTTGGACTGTGCTAG,0.00508 z-score
GACGGACTGGGGTATCAGGACGTGCTA,-0.411 z-score
TAAGGAGGCAGGGATGCTCCGTGCTAG,-1.21 z-score
TGGATACTTTGCTGAACATCGTGCTAG,0.00546 z-score
TCATGTTTGAGTCTTCTACTGTGCTAG,-0.274 z-score
GGCGGACTGCTTCTCCTGACGTGCTAG,-0.429 z-score
GACGATCCCAGTTTCGAGACGTGCTAG,2.11 z-score
GACGAACTGGACTTTCGGGACGTGCTA,0.315 z-score
GTAGAACTGAGTATCGATTAGTGCTAG,0.0948 z-score
TTAGGACTGGACTTTCAGTTAGTGCTA,-0.384 z-score
TTAGGTTTCCTATTGCTTTAGTGCTAG,5.94 z-score
TTAGGTATTGACTATCGGTTAGTGCTA,-0.291 z-score
TACTTTCTATCTCTGTTTTTGTGCTAG,4.79 z-score
TTTGCTTTCCTGATGGTCTTGTGCTAG,2.35 z-score

# Block 4
# Target: Sal-like protein 4, full length isoform B (SALL4, Homo sapiens, UniProt Q9UJQ4-2, residues 1-616)
# Technique: universal PBM
# Molecule type: double-stranded DNA, one strand shown
# Sample: in vitro
# Tested at: not given
# Notes: 8-mer, flanks averaged, mean of replicates
# Reading: higher = stronger binding
Strand,E-score
TATCTTCA,0.263
GCTGTACC,-0.247
GTCTCCTA,0.0238
AAAAGCAC,-0.0631
TCACCGAA,-0.00362
GTTATGCA,0.165
AAGTCTCA,0.0721
GACCTCGC,-0.245
AGTGTCCA,-0.0315
AACTTAAC,0.184
CTGTAATC,0.111
AACCACTT,0.0633
ACCCCATG,-0.115
AACAGTTC,0.147
GAGTGTAA,0.0628
ACGTTGAA,-0.00934
CACACAGC,-0.0905
ACACTACA,0.211
AGTGAACG,0.0688
CCATTTCG,-0.0927
AGAGGGCA,-0.12
CCCACGCC,-0.255
AGGAGATA,0.0139
ACTCACGA,-0.0445
ATCGGTTG,0.0054

# Block 5
# Target: FOSL2, bZIP domain (human)
# Technique: DHFR protein complementation
# Sample: yeast
# Notes: single substitutions, most at no-binding floor
# Relative to: wild-type JUN-FOS pair
# Reading: higher = stronger binding
# Starting sequence: JUN, bZIP domain (human); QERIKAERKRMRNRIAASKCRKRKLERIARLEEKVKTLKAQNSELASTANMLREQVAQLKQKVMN; partner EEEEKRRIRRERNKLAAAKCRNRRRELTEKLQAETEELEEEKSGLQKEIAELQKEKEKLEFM
Change,binding fitness [natural log]
T48A,-0.000793
V35H,-0.378
R53I,-0.573
S47R,0.123
L52W,-0.942
K36G,-0.0263
A49C,-0.013
E32F,-0.26
S47A,0.135
L38I,-0.318
E32G,-0.135
K36V,0.0831
L45W,-1.05
R53M,-0.422
V56G,-1.21
N42F,-1.01
V35E,-1.05
L31T,-0.575
T37H,0.138

# Block 6
# Target: CCNA2, cyclin fold, Cln2 fusion (human)
# Technique: yeast growth competition, sequencing
# Sample: yeast
# Notes: strong parent motif
# Relative to: not given
# Reading: higher = stronger binding
# Starting sequence: BRCA2 docking peptide (human); PSIKRNLLNEFDR
Change,normalised enrichment score
E10G,0.948
R13M,4.78
E10I,2.22
L8Y,3.14
R5K,3.48
P1R,6.31
K4R,5.86
E10M,1.54
L8T,3.46
S2I,3.9
E10V,1.61
L7F,1.05
N6L,1.19
R5D,1.09
S2W,3.98
L8N,2.59
L7V,-0.00588
R13W,5.33
D12T,4.37
F11A,1.67
R5V,1.05
I3T,4.17
L8Q,3.45

# A few entries again (block 6):
Change,normalised enrichment score
I3T,4.17
S2W,3.98
E10G,0.948
L7F,1.05
E10V,1.61
L8Q,3.45
E10M,1.54
L8N,2.59
K4R,5.86
F11A,1.67
R13W,5.33
L7V,-0.00588
R5V,1.05
E10I,2.22
L8Y,3.14
